Results collected from several papers.
Every numbered part comes from another study and shows a few of its results, in no order. Substitutions count along the parent as printed.

Block 1 — target: CCND3, cyclin fold, Cln2 fusion (human); technique: yeast growth competition, sequencing; matrix: yeast; setting: weak parent motif; reference: not given; direction: higher = stronger binding
Parent: CDC6 docking peptide (human); TLKGRRLVFDNQL; partner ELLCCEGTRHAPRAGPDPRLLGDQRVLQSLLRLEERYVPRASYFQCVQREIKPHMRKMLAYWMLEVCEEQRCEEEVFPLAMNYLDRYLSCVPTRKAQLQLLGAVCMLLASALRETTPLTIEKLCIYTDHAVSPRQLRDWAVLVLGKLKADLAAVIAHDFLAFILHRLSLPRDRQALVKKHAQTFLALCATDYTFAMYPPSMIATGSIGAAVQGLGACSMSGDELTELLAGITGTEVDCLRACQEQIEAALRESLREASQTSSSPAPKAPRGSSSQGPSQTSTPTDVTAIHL
Substitution	normalised enrichment score
T1R	0.13
G4E	0.0386
G4S	0.029
L7P	0.0513
V8D	0.161
G4V	0.132
R6P	0.134
N11I	0.0453
R6K	0.0758
F9M	0.0955
N11Y	0.178

Block 2 — target: DDIT3, bZIP domain (human); technique: DHFR protein complementation; matrix: yeast; reference: wild-type JUN-FOS pair; direction: higher = stronger binding
Setting: single substitutions, most at no-binding floor
Parent: JUN, bZIP domain (human); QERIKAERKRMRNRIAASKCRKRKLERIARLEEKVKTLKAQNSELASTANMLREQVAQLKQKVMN; partner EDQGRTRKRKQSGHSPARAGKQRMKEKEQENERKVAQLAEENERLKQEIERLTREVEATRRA
Substitution	binding fitness [natural log]
A46Y	-0.163
A29M	-0.278
A57S	-0.0206
S47E	0.179
L38T	-1.03
K34H	0.0183
A49Y	-0.0569
L52K	-1.13
I28K	-0.188
L31E	-0.82

Block 3 — technique: DHFR PCA, deep sequencing; matrix: yeast; with: (+)-ABA 4.8 µM; reference: wild-type fitted maximum; direction: higher = stronger binding
Target: ABI1, truncated, D143A, DHFR fusion (Arabidopsis thaliana)
Setting: methotrexate growth selection, single substitutions
Parent: PYL1, truncated, DHFR fusion (Arabidopsis thaliana); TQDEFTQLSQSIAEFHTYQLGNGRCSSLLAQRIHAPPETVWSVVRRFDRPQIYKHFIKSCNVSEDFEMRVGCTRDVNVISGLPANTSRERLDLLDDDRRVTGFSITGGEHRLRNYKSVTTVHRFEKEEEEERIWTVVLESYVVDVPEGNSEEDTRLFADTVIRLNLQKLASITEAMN
Substitution	relative binding score
N61Q	82.1%
N165E	-2.35%
D75M	79.9%
V43D	-2.92%
K126P	92.8%
S63E	71.8%

Further values, each from its own experiment
Substance	target	assay	test system	conditions	scale	endpoint	result
PhoQ, residues 284 288 289 292 302 303 SASVAL	PhoP, residues 12 14 15 18 19 AWHSL (Escherichia coli, UniProt P23836)	Sort-seq, refers to: YFP reporter	E. coli	PhoQ-PhoP variant library, with: 10 µM Mg2+	reference: high Mg2+ state, higher = stronger signaling	fold induction	7.12
